Published values of several laboratories.
Every numbered part comes from another study and shows a few of its results, in no order. Changes are numbered by the printed parent chain.

Study 1
Target: Histone acetyltransferase KAT6A, winged helix 1, GST fusion (KAT6A, Homo sapiens, UniProt Q92794, residues 1-85)
Method: protein binding microarray
Molecule type: double-stranded DNA, one strand shown
Matrix: in vitro
Concentration: not given
Setting: 8-mer, flanks averaged, mean of 2 arrays, mostly near background
Reference: not given
Reading: higher = stronger binding
Residues (chain): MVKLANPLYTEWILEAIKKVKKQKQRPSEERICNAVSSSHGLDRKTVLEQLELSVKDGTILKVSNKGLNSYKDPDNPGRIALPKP
Oligonucleotide | E-score
CACACGTC | -0.138
AAGCGTAC | 0.0897
AACCAATA | -0.152
CCAATGCC | 0.057
GGGTTACC | 0.179
GCCTACGA | 0.0214
AACGTGAA | -0.179
AAAACCAT | -0.0465
CCATCAAC | -0.0813
GCCCGACA | 0.234
CGGAGTAA | 0.0686
CACCCAAC | -0.215
CGTTGAGA | 0.0983
GAGGTGGA | -0.208
AGACGGTC | 0.0873
CCGTTTCG | 0.189
ATGCAAGC | -0.111

Study 2
Target: CCNB1, cyclin fold, Cln2 fusion (human)
Method: yeast growth competition, sequencing
Matrix: yeast
Setting: weak parent motif
Reference: not given
Reading: higher = stronger binding
Starting sequence: REPIN1 docking peptide (human); QSFRGWVALVLHL
Variant | normalised enrichment score
QSFRGAVALVLHL [W6A] | -0.136
QSFRGWVAAVLHL [L9A] | -0.513
QAFRGWVALVLHL [S2A] | 0.446
QSFRGWVALVAHL [L11A] | 0.549
QSFRGWVALALHL [V10A] | 0.00494
QSFRGWVALVLAL [H12A] | 0.445

Study 3
Target: Ras GTPase-activating protein-binding protein 1, C-terminal RGG region (G3BP1, Homo sapiens, UniProt Q13283)
Chain of UniProt Q13283 (whole entry, looked up): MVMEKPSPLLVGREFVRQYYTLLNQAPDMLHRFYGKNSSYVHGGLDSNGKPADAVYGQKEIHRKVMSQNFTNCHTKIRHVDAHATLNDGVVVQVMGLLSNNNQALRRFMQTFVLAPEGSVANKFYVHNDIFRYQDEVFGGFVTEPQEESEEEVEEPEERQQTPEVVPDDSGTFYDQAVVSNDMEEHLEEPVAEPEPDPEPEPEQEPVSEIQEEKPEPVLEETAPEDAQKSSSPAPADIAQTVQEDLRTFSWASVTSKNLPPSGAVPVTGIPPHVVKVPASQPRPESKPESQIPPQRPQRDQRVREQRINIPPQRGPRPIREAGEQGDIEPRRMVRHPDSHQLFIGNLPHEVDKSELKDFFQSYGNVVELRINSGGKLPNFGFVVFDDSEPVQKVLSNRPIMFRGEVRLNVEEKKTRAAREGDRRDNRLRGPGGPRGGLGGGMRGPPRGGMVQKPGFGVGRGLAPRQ
Method: RNA Bind-n-Seq
Molecule type: RNA
Matrix: in vitro
Concentration: 1 µM
Setting: whole 134-nt RNA, ends assumed
With: 150 mM KCl
Reference: input library
Reading: higher = stronger binding
Constant ends, left off below: GGGAGUUCUACAGUCCGACGAUC … UGGAAUUCUCGGGUGUCAAGG
Oligonucleotide | log2 enrichment
UCCUGUGCUACACAUCGUAUGUACCGAAUCGGGGCCCCCGGGCCCCCGGGGCCCCCGGGAAAGUAUUAUGUUACGCCGUUCGGAUCUGCA | -1.95
AAGUCCUGUGCUACACAUCGUAUGUACCGAAUCGGGGUUUGGUUUGGGGUUUGGGGAAAGUAUUAUGUUACGCCGUUCGGAUCUGCACUU | -0.183
AGUCCUGUGCUACACAUCGUAUGUACCGAAUCGGCCCCCGGGCCCCCGGCCCCCGGGGAAAGUAUUAUGUUACGCCGUUCGGAUCUGCAC | -1.45
CUCAAGUCCUGUGCUACACAUCGUAUGUACCGAAUCGGGUUGGGGUUGGUUGGGAAAGUAUUAUGUUACGCCGUUCGGAUCUGCACUUCC | 0.029
ACCAUGCAGGUGGGCAUCUUUGGGAAGUGGGGCAAGGGGGGGAUAGGGAGAGGGGUAACACUUUGGGAACAGGUGGUCCCAGGUCGUUUC | 2.44
GUCCUGUGCUACACAUCGUAUGUACCGAAUCGGGGCCCCCGGGGCCCCCGGGCCCCCGGAAAGUAUUAUGUUACGCCGUUCGGAUCUGCA | -1.73
UGGGAGGUGGAUUUUGUUUAUUUUUUUAGCUCAUUUCCAGGGGUGGGAAUCUUUUUUUAAUAUGUGUCAUGAAUAAAGUUGUUUUUGAAA | 3.93
AGUCCUGUGCUACACAUCGUAUGUACCGAAUCGGGGUUUGGGGUUUGGGGUUUGGGGAAAGUAUUAUGUUACGCCGUUCGGAUCUGCACU | 3.7
UGGGAGGUGGAUUUUGUUUAUUUUUUUAGCUCAUUUCCAGGGGUGGGAAUUUUUUUUUAAUAUGUGUCAUGUAUAAAGUUGUUUUUGAAA | 4.27
GUCCUGUGCUACACAUCGUAUGUACCGAAUCGGGUUUUUGGGGUUUUUGGUUUUUGGGGAAAGUAUUAUGUUACGCCGUUCGGAUCUGCA | -0.785
GUCCUGUGCUACACAUCGUAUGUACCGAAUCAAACCCCCCCAAACCCCCAAAUUUAAAAAAGUAUUAUGUUACGCCGUUCGGAUCUGCAC | -0.726
UGUGCUACACAUCGUAUGUACCGAAUCGGGGAAAAAAAGGGAAAAAAAGGGGAAAAAAAGGGGAAAGUAUUAUGUUACGCCGUUCGGAUC | -0.88
UGGCCCUGGUGGCAUGCGGGGAGGAAGAGGUGGCCUCAUGGAUCGUGGUGUUCCCGGUGGAAUGUUCAGAGGUGGCCGUGGUGGAGACAG | 1.61
GCAGGAAGUAAAAACAAAUGGAAAUGCUUCGGAUAGUGGCAGGGGUGGGGGUUGCUAAGGAAAGGGAGGGAUGGGAGUGGGUAAAGAGUU | 2.18

Study 4
Target: RNA binding protein fox-1 homolog 2, RRM domain, GST-SBP tag (RBFOX2, Homo sapiens, UniProt O43251-10, residues 100-194)
Method: RNA Bind-n-Seq
Molecule type: RNA
Matrix: in vitro
Concentration: 365 nM
Setting: natural RNA segment, single round, ends assumed
Reference: no-protein control
Reading: higher = stronger binding
Constant ends, left off below: GGGAGUUCUACAGUCCGACGAUC … UGGAAUUCUCGGGUGCCAA
Residues (chain): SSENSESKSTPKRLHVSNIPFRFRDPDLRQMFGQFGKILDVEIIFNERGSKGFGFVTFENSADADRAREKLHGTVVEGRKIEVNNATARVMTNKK
Oligonucleotide | RBNS enrichment (R)
ACCUUGACUUCAUUUAUAUGAAUUUCCACUUUAUUAAAUAAUAGAAAAGAAAAUCCCGGUGCUUGCAGUAGAGUGAUAGGACAUUCUAUGCUUACAGAAAAUAUAGCCAU | 0.653
CUGGCUCUCAAUGCCACCUUCGUUAGGAUUCAUGAAAUGAGUCCCUGUCCUUCCUGGUCAUGCUGGCCUCCGAGGCGCGGGCUGGGAUCUGUCAGGCUGCGUAUUUAUUA | 0.335
UAAACUGCUCCUCUCAGCGCUUGACACCUCUGUGUGAGGGAGACCAACCUUCGCACCCAUCCGCCCCCGCAGGCCUGGGGAGAACACAGAUAUGCUUGCACAGGCUGUGG | 0.482
CAGAACUGCCAAUUUCAGGACUGAGAUGUGUUUUUAAAAAACAAAUCCUUAUAAACUCCACUUUGUACUUUAGAUUUUAAAACUGGGGAAAAAUGUGAUAUUCUUUGGAC | 0.531
AAUUAAAUUAUUUAUAUAUUUUUGAAACCCGAAUUGAAAAUGUUGCAGGCAACGGGCUACAGCUUUAUUAGUGGUUCUCUAACUGUGGUCUCCUUGGGCCAAGCAAUUUC | 1.06
GGGCAUUGUCUUCCUUGUAUAUGUUUGUCAUAUUUCAUUUCACCAAAUAAACACAUACUCAUUGUGAACUCUCUGUUGUUGUCCAUUUCAAAUCUGGAUUGUUCUGUGAA | 1.16
GAGUGAUAAUUUAAAAUUGUUUCUAUGUAGAAUCAUUGUCUCUACUGUUGCCCUCUCUGUGUCUGCACACAUAAUGCCUCUCUCACUUUGGUGAAAUAUCAAAAAAAUGC | 0.83
UGAUAGCAGAAUUGCAUUGUGUGAACUGUGUAACUUUAGUAAUGUAAAUCAAGGAACAUCAGUUAAGAGAUUUCCUAAUUUAUUUUUUAACUGAAUAAAUAUCAGUUAAA | 0.689
CAAGCUUGAAAAAUGAUUUCCCAGUAGACAAGAGGCCCCCACCCAUCCUCCAAUUGUGUUUAUUUACAUGAGAAGAUCAUACAAAAGCCCUCCGCUCUAGUCCUAGCAGG | 0.455
UUGUUUUUCACACCUGGGGUCAGGGGUAUCGAUAGUCACGGCUGCCAUUGGCUUUAGGUCUCUGGACCAGAGACAGGAGAGGCUUUGCGACUCCAAAGCUCUAGGCCAGA | 0.276
CAGCUGUUGCAGGCAGUGUCUUAAGGAGACUGGUAGGAGGAGGCAUGGAAACCCAAAGGCCGUGUGUGUUUAGAAGCCUAACUGUCACAUCAAGCAUCAUCGUCCCCAUG | 1.65
ACAGGAUGAGGUCUCGACCCUGUCCCCUAGGGACUGUCCUAGCCAGGUCUCCUGGGAAAGGGAGAUGUCAGGAUGUUGCUCCAUCCUUUGUCUUGGAACCACCAGUCUAG | 0.375

Study 5
Target: Prothrombin, mature alpha-thrombin (F2, Homo sapiens, UniProt P00734)
Method: aptamer microarray, sandwich
Molecule type: DNA with 2'F-ANA
Matrix: in vitro
Concentration: 200 nM
Setting: whole 15-mer aptamer, many near background
With: Cy3 exosite-II aptamer, 400 nM
Reading: higher = stronger binding
Oligonucleotide: GGTTGGTGTGGTTGG
Modification | mean fluorescence intensity [a.u.]
2'F-ANA at 2 3 6 7 10 11 13 14 15 | 193
2'F-ANA at 3 4 5 6 7 9 11 12 15 | 150
2'F-ANA at 3 4 7 8 9 10 12 13 14 15 | 215
2'F-ANA at 2 8 11 12 14 | 202
2'F-ANA at 2 4 5 6 8 9 12 15 | 140
2'F-ANA at 1 2 5 6 7 8 9 10 11 13 | 78.4
2'F-ANA at 1 2 4 6 7 10 11 15 | 48.9
2'F-ANA at 1 3 4 5 6 7 9 10 11 13 15 | 54.9
2'F-ANA at 7 9 10 11 14 15 | 113
2'F-ANA at 2 5 9 11 15 | 60.8
2'F-ANA at 1 2 5 8 10 12 14 15 | 58.5
2'F-ANA at 1 3 4 5 7 8 9 10 12 13 14 | 49
2'F-ANA at 3 4 5 7 9 13 15 | 59
2'F-ANA at 3 5 8 15 | 144
2'F-ANA at 2 3 4 11 14 | 337
2'F-ANA at 1 4 5 8 9 11 12 14 15 | 58.8
2'F-ANA at 1 3 6 8 9 10 12 13 14 15 | 76.1
2'F-ANA at 1 4 5 8 9 13 15 | 62.9
2'F-ANA at 2 3 4 6 7 10 12 15 | 280
2'F-ANA at 3 5 7 8 15 | 168
2'F-ANA at 2 3 5 7 9 11 12 13 14 15 | 137
2'F-ANA at 4 5 6 7 9 10 | 46.6
2'F-ANA at 4 7 9 10 11 12 13 14 | 61
2'F-ANA at 3 6 8 10 15 | 490
2'F-ANA at 3 5 6 9 12 13 15 | 122
